Experimental data from different studies.
Numbered parts are unrelated; each lists some results of a single study. Substitutions count along the parent as printed.
Sequence of UniProt P17948 (whole entry, looked up): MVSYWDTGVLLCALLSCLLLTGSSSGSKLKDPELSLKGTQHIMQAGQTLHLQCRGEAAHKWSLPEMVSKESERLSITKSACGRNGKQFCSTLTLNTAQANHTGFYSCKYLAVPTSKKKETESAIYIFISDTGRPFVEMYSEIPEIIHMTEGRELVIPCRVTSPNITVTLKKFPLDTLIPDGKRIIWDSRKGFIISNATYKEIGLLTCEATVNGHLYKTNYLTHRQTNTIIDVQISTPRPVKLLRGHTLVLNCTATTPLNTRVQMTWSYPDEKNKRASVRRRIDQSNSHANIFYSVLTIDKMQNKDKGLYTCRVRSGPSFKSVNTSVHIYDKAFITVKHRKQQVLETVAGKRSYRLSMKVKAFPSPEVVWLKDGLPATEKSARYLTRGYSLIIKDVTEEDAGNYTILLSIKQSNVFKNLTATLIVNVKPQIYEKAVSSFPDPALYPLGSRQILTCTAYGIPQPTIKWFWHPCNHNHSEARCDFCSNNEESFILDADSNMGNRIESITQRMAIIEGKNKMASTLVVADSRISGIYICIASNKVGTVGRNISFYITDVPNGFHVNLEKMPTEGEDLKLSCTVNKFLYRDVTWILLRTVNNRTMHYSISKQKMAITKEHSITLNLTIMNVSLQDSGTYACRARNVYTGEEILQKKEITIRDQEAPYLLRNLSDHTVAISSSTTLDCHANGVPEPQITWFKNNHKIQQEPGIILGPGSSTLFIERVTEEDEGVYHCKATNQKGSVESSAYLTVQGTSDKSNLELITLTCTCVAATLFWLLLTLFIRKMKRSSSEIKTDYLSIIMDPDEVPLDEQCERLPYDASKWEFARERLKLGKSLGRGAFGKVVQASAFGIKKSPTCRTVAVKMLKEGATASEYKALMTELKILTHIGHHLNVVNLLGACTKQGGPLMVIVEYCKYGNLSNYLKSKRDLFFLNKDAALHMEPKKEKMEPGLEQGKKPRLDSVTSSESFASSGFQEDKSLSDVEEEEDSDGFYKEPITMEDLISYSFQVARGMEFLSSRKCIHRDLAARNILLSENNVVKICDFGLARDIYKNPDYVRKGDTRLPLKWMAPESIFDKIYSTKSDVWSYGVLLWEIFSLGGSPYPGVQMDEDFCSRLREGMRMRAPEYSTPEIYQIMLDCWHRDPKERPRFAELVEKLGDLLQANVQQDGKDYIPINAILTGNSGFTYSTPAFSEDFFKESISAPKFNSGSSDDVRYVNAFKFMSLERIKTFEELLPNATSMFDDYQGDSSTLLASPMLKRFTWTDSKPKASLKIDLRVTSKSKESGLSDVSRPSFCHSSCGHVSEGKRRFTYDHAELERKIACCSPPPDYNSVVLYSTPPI
Sequence of UniProt P08172 (whole entry, looked up): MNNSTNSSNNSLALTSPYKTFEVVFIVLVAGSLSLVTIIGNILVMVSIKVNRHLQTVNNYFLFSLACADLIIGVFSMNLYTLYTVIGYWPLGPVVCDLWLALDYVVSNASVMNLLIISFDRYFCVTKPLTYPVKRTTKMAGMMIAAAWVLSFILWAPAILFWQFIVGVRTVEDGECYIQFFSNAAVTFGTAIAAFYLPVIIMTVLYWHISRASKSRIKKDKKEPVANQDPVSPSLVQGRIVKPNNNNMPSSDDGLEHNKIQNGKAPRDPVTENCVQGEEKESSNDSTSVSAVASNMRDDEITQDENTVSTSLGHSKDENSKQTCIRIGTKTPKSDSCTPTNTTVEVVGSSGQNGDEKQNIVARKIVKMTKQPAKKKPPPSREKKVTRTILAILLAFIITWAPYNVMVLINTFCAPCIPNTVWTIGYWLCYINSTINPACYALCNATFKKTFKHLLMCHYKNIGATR
Sequence of UniProt P11802 (whole entry, looked up): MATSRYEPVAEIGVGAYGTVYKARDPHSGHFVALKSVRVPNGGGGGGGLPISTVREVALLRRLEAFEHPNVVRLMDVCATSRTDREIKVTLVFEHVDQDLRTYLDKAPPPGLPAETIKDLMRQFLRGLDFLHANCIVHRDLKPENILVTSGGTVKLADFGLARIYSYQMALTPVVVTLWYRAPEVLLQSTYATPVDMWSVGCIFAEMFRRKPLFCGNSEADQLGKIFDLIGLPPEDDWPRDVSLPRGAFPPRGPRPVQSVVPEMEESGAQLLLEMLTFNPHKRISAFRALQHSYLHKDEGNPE
Sequence of UniProt P49841 (whole entry, looked up): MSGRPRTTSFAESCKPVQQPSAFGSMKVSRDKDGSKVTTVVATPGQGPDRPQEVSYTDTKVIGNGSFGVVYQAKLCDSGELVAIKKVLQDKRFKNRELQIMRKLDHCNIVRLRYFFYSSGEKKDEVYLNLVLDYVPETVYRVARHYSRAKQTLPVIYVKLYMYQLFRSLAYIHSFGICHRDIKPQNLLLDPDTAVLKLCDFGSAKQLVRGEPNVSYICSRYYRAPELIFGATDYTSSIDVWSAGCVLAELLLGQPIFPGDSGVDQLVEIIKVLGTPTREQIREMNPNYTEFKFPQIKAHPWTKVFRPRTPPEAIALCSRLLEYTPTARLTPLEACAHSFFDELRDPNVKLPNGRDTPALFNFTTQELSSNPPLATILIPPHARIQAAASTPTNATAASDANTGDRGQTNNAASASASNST

Sample 1
Target: DNA polymerase theta, ATPase domain (POLQ, Homo sapiens, UniProt O75417)
Sequence of UniProt O75417 (whole entry, unmodified, looked up): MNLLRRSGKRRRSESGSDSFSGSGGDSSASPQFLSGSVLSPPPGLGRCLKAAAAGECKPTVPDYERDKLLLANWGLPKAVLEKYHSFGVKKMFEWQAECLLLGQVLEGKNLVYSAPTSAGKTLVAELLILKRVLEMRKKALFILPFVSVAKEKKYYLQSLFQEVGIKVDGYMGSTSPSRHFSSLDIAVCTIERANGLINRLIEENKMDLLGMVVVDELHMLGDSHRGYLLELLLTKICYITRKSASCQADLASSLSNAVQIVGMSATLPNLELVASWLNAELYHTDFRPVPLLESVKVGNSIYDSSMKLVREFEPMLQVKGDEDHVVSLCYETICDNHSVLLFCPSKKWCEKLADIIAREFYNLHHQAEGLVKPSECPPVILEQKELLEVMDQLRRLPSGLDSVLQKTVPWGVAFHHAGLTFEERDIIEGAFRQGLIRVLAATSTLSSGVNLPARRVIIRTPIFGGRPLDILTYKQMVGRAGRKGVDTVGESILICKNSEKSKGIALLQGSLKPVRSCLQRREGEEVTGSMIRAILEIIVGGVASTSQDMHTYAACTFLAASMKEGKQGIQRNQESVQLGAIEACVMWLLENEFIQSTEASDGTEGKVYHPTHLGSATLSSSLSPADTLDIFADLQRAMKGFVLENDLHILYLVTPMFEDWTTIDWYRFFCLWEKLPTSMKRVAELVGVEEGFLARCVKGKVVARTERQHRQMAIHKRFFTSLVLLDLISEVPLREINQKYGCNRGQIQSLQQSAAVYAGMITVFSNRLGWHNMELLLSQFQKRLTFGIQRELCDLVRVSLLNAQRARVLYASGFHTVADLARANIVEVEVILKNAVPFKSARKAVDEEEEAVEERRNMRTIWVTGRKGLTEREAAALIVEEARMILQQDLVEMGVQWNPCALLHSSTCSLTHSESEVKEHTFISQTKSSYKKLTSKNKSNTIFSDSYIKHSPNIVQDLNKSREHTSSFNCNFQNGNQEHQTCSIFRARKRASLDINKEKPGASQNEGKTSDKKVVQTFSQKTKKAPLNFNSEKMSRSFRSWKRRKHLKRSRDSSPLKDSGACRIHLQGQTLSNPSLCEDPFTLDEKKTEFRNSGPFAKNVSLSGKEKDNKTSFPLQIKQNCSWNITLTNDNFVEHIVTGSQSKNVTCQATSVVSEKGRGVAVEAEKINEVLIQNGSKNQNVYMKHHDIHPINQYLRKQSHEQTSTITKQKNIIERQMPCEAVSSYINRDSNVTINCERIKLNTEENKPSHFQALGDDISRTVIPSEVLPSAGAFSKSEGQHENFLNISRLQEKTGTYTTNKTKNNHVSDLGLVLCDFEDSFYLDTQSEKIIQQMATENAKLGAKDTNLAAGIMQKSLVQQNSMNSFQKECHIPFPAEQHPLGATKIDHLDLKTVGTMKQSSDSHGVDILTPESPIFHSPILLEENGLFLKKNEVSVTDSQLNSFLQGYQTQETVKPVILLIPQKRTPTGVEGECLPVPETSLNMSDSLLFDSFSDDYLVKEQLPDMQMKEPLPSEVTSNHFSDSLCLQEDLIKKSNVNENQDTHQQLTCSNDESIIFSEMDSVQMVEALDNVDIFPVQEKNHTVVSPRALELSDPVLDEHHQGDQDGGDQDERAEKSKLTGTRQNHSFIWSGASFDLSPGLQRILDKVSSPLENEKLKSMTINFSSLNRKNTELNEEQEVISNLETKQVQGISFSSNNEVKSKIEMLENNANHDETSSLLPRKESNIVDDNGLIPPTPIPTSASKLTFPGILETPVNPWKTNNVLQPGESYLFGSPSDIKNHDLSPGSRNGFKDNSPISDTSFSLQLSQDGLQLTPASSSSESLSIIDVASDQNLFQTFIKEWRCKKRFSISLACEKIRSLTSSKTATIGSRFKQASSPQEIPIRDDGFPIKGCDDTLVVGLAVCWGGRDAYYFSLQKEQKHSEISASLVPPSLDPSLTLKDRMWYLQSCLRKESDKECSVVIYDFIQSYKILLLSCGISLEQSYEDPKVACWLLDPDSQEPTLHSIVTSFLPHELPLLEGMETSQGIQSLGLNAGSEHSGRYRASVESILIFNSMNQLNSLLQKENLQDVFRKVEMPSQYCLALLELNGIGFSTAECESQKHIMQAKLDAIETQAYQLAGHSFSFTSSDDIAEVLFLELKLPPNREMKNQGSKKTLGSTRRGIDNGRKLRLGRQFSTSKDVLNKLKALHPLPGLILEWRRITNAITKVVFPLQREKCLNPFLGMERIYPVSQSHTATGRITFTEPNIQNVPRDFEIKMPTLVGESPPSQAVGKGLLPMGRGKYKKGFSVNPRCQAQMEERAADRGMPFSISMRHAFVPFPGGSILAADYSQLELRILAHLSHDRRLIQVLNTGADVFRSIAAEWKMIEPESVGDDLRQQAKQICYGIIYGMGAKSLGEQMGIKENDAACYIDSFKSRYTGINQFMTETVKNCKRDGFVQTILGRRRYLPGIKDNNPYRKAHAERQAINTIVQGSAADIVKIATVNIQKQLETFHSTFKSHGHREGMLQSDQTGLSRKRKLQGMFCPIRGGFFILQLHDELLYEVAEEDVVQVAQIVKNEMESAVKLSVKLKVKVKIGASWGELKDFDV
Observed: enzyme activity
Mode: inhibitor
Tested at: 77 µM
Relative to: untreated
With `CC(=O)NBr` the remaining activity was 97.6%.
With `CC(=O)NCCc1c[nH]c2ccccc12` the remaining activity was 86.9%.
With `O=S(=O)(CC1CS1)c1ccc(Oc2ccccc2)cc1` (stereo not shown) the remaining activity was 92.8%.

Sample 2
Target: CCNE2, cyclin fold, Cln2 fusion (human)
Technique: yeast growth competition, sequencing
Sample: yeast
Notes: strong parent motif
Relative to: not given
Reading: higher = stronger binding
Starting sequence: viral docking peptide; TSVRRALFTGGSD; partner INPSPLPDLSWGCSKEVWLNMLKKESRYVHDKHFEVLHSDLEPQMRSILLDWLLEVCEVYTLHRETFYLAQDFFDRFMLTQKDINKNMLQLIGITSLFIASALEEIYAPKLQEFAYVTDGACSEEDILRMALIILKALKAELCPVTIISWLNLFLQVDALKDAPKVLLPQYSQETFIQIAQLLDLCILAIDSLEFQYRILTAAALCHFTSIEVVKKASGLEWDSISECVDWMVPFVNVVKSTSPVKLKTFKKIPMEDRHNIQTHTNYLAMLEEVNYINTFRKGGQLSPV
`TSVRRALFQGGSD [T9Q]`: “normalised enrichment score” 4.2.
`TSMRRALFTGGSD [V3M]`: “normalised enrichment score” 0.83.
`TSVRRYLFTGGSD [A6Y]`: “normalised enrichment score” 0.345.
`TSVRRALFYGGSD [T9Y]` — result for “normalised enrichment score”: 2.21.
`TSHRRALFTGGSD [V3H]`: “normalised enrichment score” 1.83.
`TSVRRALFTTGSD [G10T]`: “normalised enrichment score” 3.98.
`TGVRRALFTGGSD [S2G]` — result for “normalised enrichment score”: 4.48.
Under “normalised enrichment score”, `TSVRRALFEGGSD [T9E]` is recorded as 2.5.

Sample 3
SMILES: CNC(=O)c1ccc(-c2cnn3ccc(C(=O)N(C)c4ccc(Cl)c(C(=O)OC)c4)cc23)cc1
Hepatocyte growth factor receptor (MET, Homo sapiens, UniProt P08581); enzyme activity, inhibitor — IC50: greater than 30 µM.
The IC50 was greater than 30 µM (Vascular endothelial growth factor receptor 1 (FLT1, Homo sapiens, UniProt P17948); enzyme activity, inhibitor).
The IC50 was 19.1 µM (Glycogen synthase kinase-3 beta (GSK3B, Homo sapiens, UniProt P49841); enzyme activity, inhibitor).
It gave greater than 30 µM for IC50 (MAP kinase-interacting serine/threonine-protein kinase 2 (MKNK2, Homo sapiens, UniProt Q9HBH9); enzyme activity, inhibitor).
Adenosine receptor A3 (ADORA3, Homo sapiens, UniProt P0DMS8); cell-free assay — IC50: greater than 30 µM.
For Muscarinic acetylcholine receptor M2 (CHRM2, Homo sapiens, UniProt P08172); cell-free assay: IC50 read greater than 30 µM.
For Mitogen-activated protein kinase 1 (MAPK1, Homo sapiens, UniProt P28482); enzyme activity, inhibitor: IC50 read greater than 30 µM.
The IC50 was greater than 30 µM (Prothrombin (F2, Homo sapiens, UniProt P00734); cell-free assay).
Cyclin-dependent kinase 4 (CDK4, Homo sapiens, UniProt P11802); enzyme activity, inhibitor — IC50: greater than 30 µM.

Single results of other studies
`Cn1cncc1[C@@](O)(COc1ccc(C#N)cc1-c1ccc(OC(F)(F)F)cc1)c1ccc(C#N)cc1` gave a remaining binding of 100% (Fibroblast growth factor receptor 4 (FGFR4, Homo sapiens, UniProt P22455); cell-free assay, competition with immobilised ligand; 1 µM).
With `O=C(O)C1CCN1` (stereo not shown) the inhibition was 13% (Calcium/calmodulin-dependent protein kinase type II subunit alpha (CAMK2A, Homo sapiens, UniProt Q9UQM7); enzyme activity, inhibitor; 10 µM).

A few entries again (sample 3):
Hepatocyte growth factor receptor (MET, Homo sapiens, UniProt P08581); enzyme activity, inhibitor — IC50: greater than 30 µM.
It gave greater than 30 µM for IC50 (MAP kinase-interacting serine/threonine-protein kinase 2 (MKNK2, Homo sapiens, UniProt Q9HBH9); enzyme activity, inhibitor).
